Experimental data gathered from unrelated publications.
A part holds a random share of what one study measured. Substitutions count along the parent as printed.

Block 1
Target: UBE2J2 UBC core domain (UniProt Q8N2K1)
UniProt Q8N2K1, sequence (whole entry, looked up): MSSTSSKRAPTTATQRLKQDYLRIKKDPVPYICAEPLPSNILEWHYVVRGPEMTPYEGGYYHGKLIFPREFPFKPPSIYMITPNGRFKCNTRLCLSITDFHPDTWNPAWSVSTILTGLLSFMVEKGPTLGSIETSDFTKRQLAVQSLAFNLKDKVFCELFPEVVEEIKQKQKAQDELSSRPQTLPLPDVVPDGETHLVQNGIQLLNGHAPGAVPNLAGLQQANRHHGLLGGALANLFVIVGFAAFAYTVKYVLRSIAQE
Method: yeast two-hybrid
Matrix: yeast
Notes: mostly zero background
Relative to: not given
Direction: higher = stronger interaction
B1: RNF19A RING domain (UniProt Q9NV58); chain ISKQIGDFIECPLCLLRHSKDRFPDIMTCHHRSCVDCLRQYLRIEISESRVNISCPECTERFNPHDIR
B2: DTX2 RING domain (UniProt Q86UW9); chain EELKVPPDEDCIICMEKLSTASGYSDVTDSKAIGSLAVGHLTKCSHAFHLLCLLAMYCNGNKDGSLQCPSCKTIYGEKTGTQ
B3: SYTL4 RING domain (UniProt Q96C24); chain RGSQHYSDRTCARCQESLGRLSPKTNTCRGCNHLVCRDCRIQESNGTWRCKVCAKEIELKKAT
Sequence | lacZ reporter activity
KLRKLKEAMLCMVCCEEEINSTFCPCGHTVCCESCAAQLQSCPVCRSRVEHVQHVY (MYLIP RING domain (UniProt Q8WY64)) | 3020
FDGDVDPDLKCALCHKVLEDPLTTPCGHVFCAGCVLPWVVQEGSCPARCRGRLSAKELN (PDZRN3 RING domain (UniProt Q9UPQ7)) | 0
B1 (RNF19A RING domain) | 0
B2 (DTX2 RING domain) | 0
PEDRESLKSACVVCLSSFKSCVFLECGHVCSCTECYRALPEPKKCPICRQAITRVIPLY (MUL1 RING domain (UniProt Q969V5)) | 12700
AMYLQENGIDCPKCKFSYALARGGCMHFHCTQCRHQFCSGCYNAFYAKNKC (RNF31 RING domain (UniProt Q96EP0)) | 0
KETIKKTTKPCPRCHVPVEKNGGCMHMKCPQPQCRLEWCWNCGCEWNRVCMG (PRKN RING domain (UniProt O60260)) | 0
B3 (SYTL4 RING domain) | 0
NLSELTPYILCSICKGYLIDATTITECLHTFCKSCIVRHFYYSNRCPKCNIVVHQTQPLY (PCGF6 RING domain (UniProt Q9BYE7)) | 0

Block 2
Target: Centromere-binding protein 1, full length, His-tagged (CBF1, Saccharomyces cerevisiae, UniProt P17106, residues 1-351)
UniProt P17106, sequence (whole entry, looked up): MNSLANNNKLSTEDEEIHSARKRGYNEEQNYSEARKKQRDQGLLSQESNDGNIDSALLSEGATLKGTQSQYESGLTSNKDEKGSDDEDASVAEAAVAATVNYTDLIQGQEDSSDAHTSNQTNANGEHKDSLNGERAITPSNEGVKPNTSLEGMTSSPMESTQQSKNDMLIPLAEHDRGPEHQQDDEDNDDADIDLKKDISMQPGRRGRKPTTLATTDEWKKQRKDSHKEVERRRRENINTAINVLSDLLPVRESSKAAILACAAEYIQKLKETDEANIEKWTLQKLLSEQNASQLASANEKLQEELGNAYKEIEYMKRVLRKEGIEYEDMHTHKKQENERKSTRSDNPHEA
Method: competition protein-binding microarray
Molecule type: double-stranded DNA, one strand shown
Matrix: in vitro
Concentration: 2 µM
Notes: whole 60-bp probe, lowest competitor level
Together with: Pho4 competitor, 0.05 µM
Direction: higher = stronger binding
All sequences stand within: … GTCTTGATTCGCTTGACGCTGCTG
Oligonucleotide | fluorescence intensity
CGTCCTAGTGATTGTGCCGTGGGTGCCATGAGGAAG | 82.3 a.u.
TTGTCGGCATAACCGCACATGGACGTCTATATGACC | 77.9 a.u.
TAAAGGTGAGTATGGCATGTGGTGGTGGGATTAGAG | 80.1 a.u.
CAGGCAAAAGCGTTACACGTGACGGTGGTATGATCG | 4600 a.u.
GCGCTACCGTTGCGCCACGAGGCCTGTCCAACAGCG | 61.9 a.u.
CATGGAAAAGCAAGTGCCGTGCCAGTTCCAACTAAG | 74.7 a.u.
GAGCCGTCCCGCAATCACCTGTAATGGCCAGTTCCC | 65.4 a.u.
CTTTCCCGATCTTTACACGTGTTTTTAGCACATTTG | 1250 a.u.
ACACACAAATAGTTACACGTGAGAGAAAGGAAGGTA | 1100 a.u.
CTAACGAAGGTTTGATGAGTGGGTGACAAGCCAAGT | 64.6 a.u.
CGTCCTAGCGATTGATGTGTGGGTGCCATGAGGAAG | 69.4 a.u.

Block 3
Target: CCND2, cyclin fold, Cln2 fusion (human)
Method: yeast growth competition, sequencing
Matrix: yeast
Notes: weak parent motif
Relative to: not given
Direction: higher = stronger binding
Starting sequence: SCAPER docking peptide (human); SNARRSLNFGGST
Substitution | normalised enrichment score
SNARRSLNIGGST [F9I] | 0.257
SNARRSLNFGAST [G11A] | 0.307
ENARRSLNFGGST [S1E] | -0.46
SNARRSLNAGGST [F9A] | -0.0204
SNARRSLNFGGDT [S12D] | 0.625
SNARRSLNFGGWT [S12W] | -0.0372
SNARRSLQFGGST [N8Q] | 0.251
SNARRSLNFGGSG [T13G] | 0.588
SNATRSLNFGGST [R4T] | 0.226
SNARRSLNFGGRT [S12R] | -0.0717
TNARRSLNFGGST [S1T] | 0.561
SNAQRSLNFGGST [R4Q] | -0.0208
WNARRSLNFGGST [S1W] | 0.547
SNANRSLNFGGST [R4N] | 0.374
SNARRSLNMGGST [F9M] | 0.819
SNARRSLNFGGTT [S12T] | 0.212
SNAVRSLNFGGST [R4V] | 0.41
SMARRSLNFGGST [N2M] | -0.11

Block 4
Target: ATF5, bZIP domain (human)
Method: DHFR protein complementation
Matrix: yeast
Notes: single substitutions, most at no-binding floor
Relative to: wild-type JUN-FOS pair
Direction: higher = stronger binding
Starting sequence: JUN, bZIP domain (human); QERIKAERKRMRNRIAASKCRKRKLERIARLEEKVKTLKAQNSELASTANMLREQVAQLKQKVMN; partner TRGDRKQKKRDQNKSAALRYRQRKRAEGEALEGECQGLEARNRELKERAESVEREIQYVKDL
Substitution | binding fitness
Q55L | -1.3 natural log
A40W | -1.44 natural log
A46G | -1.47 natural log
E54C | -1.52 natural log
T37P | -1.51 natural log
R30S | -1.38 natural log
Q41K | -1.49 natural log
Q55K | -1.37 natural log
K39L | -1.44 natural log
N42D | -1.61 natural log
K39N | -1.55 natural log
N42A | -1.38 natural log
T48F | -1.56 natural log
N42E | -1.46 natural log
E54G | -1.4 natural log
I28H | -1.28 natural log

Block 5
Target: Interferon regulatory factor 3, full length, phosphomimetic (IRF3, Homo sapiens, UniProt Q14653, residues 1-427, S386D/S396D/S398D/S402D/T404D/S405D)
Method: protein-binding microarray
Molecule type: double-stranded DNA, one strand shown
Matrix: in vitro
Concentration: 2540 nM top
Notes: 60-bp whole probe
Together with: salmon DNA 0.4 mg/ml
Relative to: random background probes
Direction: higher = stronger binding
All sequences stand within: GCCTAGCAC … GTCTTGATTCGCTTGACGCTGCTG
Residues (chain): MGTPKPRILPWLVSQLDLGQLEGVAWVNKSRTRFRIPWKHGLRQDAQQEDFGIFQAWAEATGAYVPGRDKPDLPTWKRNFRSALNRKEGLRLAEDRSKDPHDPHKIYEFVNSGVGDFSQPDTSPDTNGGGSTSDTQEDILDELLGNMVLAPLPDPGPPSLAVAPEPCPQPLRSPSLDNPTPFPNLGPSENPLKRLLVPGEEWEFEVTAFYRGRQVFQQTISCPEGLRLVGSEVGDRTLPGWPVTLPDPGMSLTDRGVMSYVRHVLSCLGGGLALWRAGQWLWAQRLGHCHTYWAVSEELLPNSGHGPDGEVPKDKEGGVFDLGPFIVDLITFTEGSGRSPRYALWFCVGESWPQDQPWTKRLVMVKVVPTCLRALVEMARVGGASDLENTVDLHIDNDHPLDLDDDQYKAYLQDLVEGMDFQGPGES
Oligonucleotide | fitted relative affinity [z-score]
TCTTTTTTTCTTTTATTAGTGTGCTAG | 2.82
TTAGGATTGGACTATCGGTTAGTGCTA | -0.00857
TTAGGACTGGGCACTGGGTTAGTGCTA | -1.26
GGCGGTATCGACTATCGGGACGTGCTA | 0.55
TTAGGTTTCGACACTCGGTTAGTGCTA | 2.37
GACGGTTTCGACGCTGGGGACGTGCTA | 2
GACGGACTGGACTATCCGGACGTGCTA | 0.0249
GACGGTTTCGCTTTCGGGACGTGCTAG | 8.03
GACGGTTCCGGTTTCGGGAAGTGCTAG | 5.94
CTAGGTTTCCTTTTCCTTTAGTGCTAG | 11.8
TCAATTTTTACATTATTACTGTGCTAG | 0.747
AACGGTATCGACTATCGGGACGTGCTA | 0.616
GACAGTATCGGGACTGGGGACGTGCTA | 1.72
GACGGACTGGGACTTGGGACGTGCTAG | -0.91
GTGGTTCTGCTTCTTAGCGCGTGCTAG | 0.601
GACGGTTTCGACTAGCGGGACGTGCTA | 2.57
GACGAACTGAGTTTCGTGACGTGCTAG | 0.898
TTAGAACTGGGGAGTGGATTAGTGCTA | -0.829
GACGGGCTCGGACTGGGGACGTGCTAG | -1.06

Some of these lines once more (block 5):
Oligonucleotide | fitted relative affinity [z-score]
GACGGACTGGACTATCCGGACGTGCTA | 0.0249
GACGGTTTCGCTTTCGGGACGTGCTAG | 8.03
GACGGTTCCGGTTTCGGGAAGTGCTAG | 5.94
CTAGGTTTCCTTTTCCTTTAGTGCTAG | 11.8
TCAATTTTTACATTATTACTGTGCTAG | 0.747
AACGGTATCGACTATCGGGACGTGCTA | 0.616
GACAGTATCGGGACTGGGGACGTGCTA | 1.72
GACGGACTGGGACTTGGGACGTGCTAG | -0.91
GTGGTTCTGCTTCTTAGCGCGTGCTAG | 0.601
GACGGTTTCGACTAGCGGGACGTGCTA | 2.57
GACGAACTGAGTTTCGTGACGTGCTAG | 0.898
